# Results gathered from unrelated publications.
# Lines come from different studies, so protocols differ. “And” joins repeats or separate records; there may be more than shown. ± gives the spread as reported.
# pyrD: Dihydroorotate dehydrogenase (quinone) (pyrD, Acinetobacter baumannii, UniProt B7GZW7)
# AKR1B1: Aldo-keto reductase family 1 member B1 (AKR1B1, Homo sapiens, UniProt P15121)
# Kir3.1/Kir3.4: Kir3.1/Kir3.4 (Homo sapiens, UniProt P48544+P48549)
# T1: riboswitch RNA yjdF aptamer domain (Bacillus subtilis); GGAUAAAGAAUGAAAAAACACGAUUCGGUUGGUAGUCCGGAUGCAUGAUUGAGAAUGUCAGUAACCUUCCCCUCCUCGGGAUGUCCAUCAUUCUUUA
# T2: riboswitch RNA SAM-I metF-H2 (Thermoanaerobacter tengcongensis); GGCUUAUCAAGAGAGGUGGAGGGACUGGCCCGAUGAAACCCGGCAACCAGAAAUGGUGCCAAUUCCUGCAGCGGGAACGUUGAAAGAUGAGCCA
Compound,target,assay,test system,setting,scale,quantity,result
NCCCC(=O)O,"Sodium- and chloride-dependent taurine transporter (SLC6A6, Homo sapiens, UniProt P31641, L306A)","binding, microscale thermophoresis",,"31.3 µM, room temperature, together with: 50 nM labelled protein",higher = more binding,normalised MST signal,0.00394
Nc1ncnc2c1ncn2[C@@H]1O[C@H](COP(=O)(O)OP(=O)(O)OP(=O)(O)O)[C@@H](O)[C@H]1O,"P2X purinoceptor 7 (P2rx7, Rattus norvegicus, UniProt Q64663, Q143A)","ion current, agonist, two-electrode voltage clamp",Xenopus laevis oocytes,166 µM,relative to: highest concentration response,normalized current,0.741 and 0.546 and 0.332
CC1=NN(c2cc(Cl)ccc2Cl)C(=O)C1=NNc1ccc(S(N)(=O)=O)cc1,bovine α-glucosidase,"enzyme activity, inhibitor, glucose oxidase",,"100 µg/mL, together with: maltose",,inhibition,33.3%
C=CC(=O)N1CCC(COCC(=O)N2CCN(c3nc(-c4cnc(N)nc4C(F)F)nc(N4CCOC[C@@H]4C)n3)CC2)CC1,"Ephrin type-A receptor 8 (EPHA8, Homo sapiens, UniProt P29322)",KINOMEscan,,1 µM,,remaining binding,88%
Nc1ncnc2c1ncn2[C@@H]1O[C@H](CO[P@](=O)(O)O[P@](=O)(O)O[P@@](=O)(O)S)[C@@H](O)[C@H]1O,"GUK1 (Homo sapiens, UniProt Q16774, K17A)","binding, ITC",,together with: GMP,,-TΔS,-1.97 kcal/mol
Cc1cc(Nc2ccc(C(F)(F)F)cc2)n2ccnc2n1,pyrD,"enzyme activity, inhibitor, colorimetric HTS, measured: DCIP reduction",,3 µM,direction not given,robust Z-score,25.2
CCCc1ccc(S(=O)(=O)Oc2ccccc2NC(=O)c2ccc3ncccc3c2)cc1,"P2X purinoceptor 4 (P2RX4, Homo sapiens, UniProt Q99571)",calcium mobilization,MCF7 stably transfected,"100 µM, together with: ATP 100 µM",,fluorescence increase,84.6 ± 0.47%
CCOCc1nc(O)c(-c2nnc(Cc3ccc(Cl)cn3)o2)c(O)c1-c1c(OC)cccc1OC,"Apelin receptor (APLNR, Homo sapiens, UniProt P35414)","β-arrestin2 activation, agonist, BRET biosensor",HEK293,,,Emax,96 ± 2%
CC(C)C[C@H](N)C(=O)O,"snf (Aquifex aeolicus, UniProt O67854, L400A)",scintillation proximity,,10 nM protein,,Bmax,5260 ± 67 cpm/pmol LeuT
O=C(CN1C(=O)S/C(=C\c2ccc(F)cc2)C1=O)c1ccc([N+](=O)[O-])cc1,AKR1B1,"enzyme activity, inhibitor",,,,Hill slope,-0.598
CC(=O)NCCCC[C@H](NC(=O)CNC(=O)[C@H](CCCNC(=N)N)NC(C)=O)C(=O)Nc1ccc2c(C)cc(=O)oc2c1,human Y386F mutant enzyme,"substrate, fluorogenic",,,,Km,16 ± 4 µM
Cc1nc2nc(C(C)(F)F)nn2c(Nc2ccc(C(F)(F)F)cc2)c1F,pyrD,"enzyme activity, inhibitor, colorimetric HTS, measured: DCIP reduction",,3 µM,direction not given,robust Z-score,18.6
O=C(O)C1CCCNC1 (stereo not shown),"Sodium- and chloride-dependent taurine transporter (SLC6A6, Homo sapiens, UniProt P31641, G62A)","binding, microscale thermophoresis",,"250 µM, room temperature, together with: 50 nM labelled protein",higher = more binding,normalised MST signal,0.305
CCOc1ccc(NC(=O)O[C@H](Cn2nc(C(C)C)cc2C(C)C)C(C)C)cc1,"Neuronal acetylcholine receptor; alpha4/beta2, (α4)2(β2)3 stoichiometry (Homo sapiens, UniProt P17787+P43681)",two-electrode voltage clamp,Xenopus oocytes,"10 µM, high-sensitivity stoichiometry, together with: ACh 10 µM",relative to: ACh alone,ACh-evoked current,88 ± 9%
O=C1S/C(=C\c2ccc(Br)cc2)C(=O)N1Cc1nc2ccccc2s1,AKR1B1,"enzyme activity, inhibitor",,,,log IC50,2.33 log nM
Nc1ncnc2c1ncn2[C@@H]1O[C@H](COP(=O)(O)OP(=O)(O)OP(=O)(O)O)[C@@H](O)[C@H]1O,"Creatine kinase U-type, mitochondrial (CKMT1A, Homo sapiens, UniProt P12532, E265D)","substrate, ADP-Glo luminescence",,"pH 8.5, forward reaction, E227D mutant, together with: second substrate in excess",,kcat,0.004 ± 0.002 s⁻¹
Cc1cc(Nc2ccc(C(F)(F)F)c(F)c2)n2nc(C(C)(F)F)nc2n1,pyrD,"enzyme activity, inhibitor, colorimetric HTS, measured: DCIP reduction",,3 µM,direction not given,robust Z-score,19.5
CC1=C(/C=C/C(C)=C/C=C/C(C)=C/C=O)C(C)(C)CCC1,"Rhodopsin (RHO, Bos taurus, UniProt P02699, G270S)","retinal entry, Trp FRET",lipid bicelles,"28 °C, G270S mutant",relative to: wild-type rhodopsin,relative kon,1 ± 0.13
CCC1(O)CCCN(C(=O)c2ccc(-c3ccc(F)c(NC(=O)CCl)c3)cc2)C1 (stereo not shown),"DNA dC->dU-editing enzyme APOBEC-3B, C-terminal domain (Homo sapiens, UniProt Q9UH17)","covalent modifier, intact protein mass spectrometry, measured: adduct +26487 Da",,"500 µM, 3 h, 20-fold molar excess",,protein adduct,10%
NC/C(=C\F)COc1cccc(Cn2c(=S)[nH]c(=O)c3[nH]cnc32)c1,"Amine oxidase [copper-containing] 3 (Rattus norvegicus, UniProt O08590)",,rat adipose tissue,3 µM,,inhibition,108%
Cn1nnc2ccc(NC(=O)c3cccc(C(=O)O)c3)cc21,"CREB-binding protein, bromodomain (CREBBP, Homo sapiens, UniProt Q92793)",binding,,,,ligand efficiency,0.3
NS(=O)(=O)NCCNc1nonc1C(=NO)Nc1ccc(F)c(Br)c1,"Indoleamine 2,3-dioxygenase 1 (IDO1, Homo sapiens, UniProt P14902)","thermal stability, nanoDSF",,"50 µM, 2% DMSO, 2 mM DTT, together with: unlabelled protein",,ΔTi,8.1 °C
CCCCC/C=C\C/C=C\CCCCCCCC(=O)O,"Cytochrome P450 2J2 (CYP2J2, Homo sapiens, UniProt P51589, L2A)","substrate, measured: total metabolites",,,,Vmax,146 ± 17 pmol/min/nmol CYP2J2
O=C(COc1cccc(Cl)c1Cl)Nc1cc(C2CCC2)nn1C1CCC(F)(F)CC1,Kir3.1/Kir3.4,"thallium flux, activator",HEK293,,relative to: standard compound,Emax,< 10%
[O-][S+]1CCCCS1 (stereo not shown),"Superoxide dismutase [Cu-Zn] (SOD1, Homo sapiens, UniProt P00441, G94A)",LC-MS,human whole blood,"500 µM, 1 h, 37 °C",,SOD1 dimer fraction,59%
Nc1nc2c(ncn2[C@@H]2O[C@H](COP(=O)(O)O)[C@@H](O)[C@H]2O)c(=O)[nH]1,"GUK1 (Homo sapiens, UniProt Q16774, E72A)","enzyme activity, NADH-coupled",,31.25 µM,,reaction rate,-0.639 s⁻¹ and -0.126 s⁻¹ and -0.559 s⁻¹
C[C@H](N)C(=O)Nc1ccc2ccccc2c1,rat aminopeptidase III,substrate,,MW 110 kDa,,kcat,5.17 s⁻¹
O=c1nc(SCc2cc(F)cc(C(F)(F)F)c2)nc(SCc2ccc3sccc3c2)[nH]1,"DNA topoisomerase 2-alpha (TOP2A, Homo sapiens, UniProt P11388)",ATPase activity,,"3.9 µM, together with: ATP 2 mM",,ATP hydrolysis rate,1.84 µM/min and 1.98 µM/min
Nc1ncnc2c1ncn2[C@@H]1O[C@H](COP(=O)(O)CP(=O)(O)OP(=O)(O)O)[C@@H](O)[C@H]1O,"P2X purinoceptor 1 (P2RX1, Homo sapiens, UniProt P51575, E122A)",saturation binding,,52 nM,,specific binding,606 corrected cpm and 372 corrected cpm and 594 corrected cpm
N#Cc1ccsc1NC(=O)COc1cccc(Cl)c1Cl,Kir3.1/Kir3.4,"activator, thallium flux",HEK293,concentration not given,,activity,inactive
NC1=NC(=O)N([C@H]2C[C@H](O)[C@@H](CO)O2)CN1CCCCCN(CC[C@H](N)C(=O)O)C[C@H]1O[C@@H](n2cnc3c(N)ncnc32)[C@H](O)[C@@H]1O,"DNA (cytosine-5)-methyltransferase 1 (DNMT1, Homo sapiens, UniProt P26358)",radiometric [3H]-SAM,,"concentration not given, together with: SAM, poly(dI-dC)",,inhibition type,inhibited
Cc1cc(NC2CCc3ccc(Br)cc3C2)n2nc(C(C)(F)F)nc2n1 (stereo not shown),pyrD,"enzyme activity, inhibitor, colorimetric HTS, measured: DCIP reduction",,3 µM,direction not given,robust Z-score,17.6
CN1C(=Cc2cc[n+](C)c3ccccc23)Sc2ccccc21,"T1, riboswitch RNA yjdF aptamer domain (Bacillus subtilis)",fluorescence titration,,,,Kd,0.24 nM
CNc1ncc2c(/C=C/C(=O)N3CCC(OC)CC3)nn(Cc3cccc(C(F)(F)F)c3)c2n1,"Non-receptor tyrosine-protein kinase TNK1 (TNK1, Homo sapiens, UniProt Q13470)","kinase activity, inhibitor",,1 µM,relative to: untreated control,remaining activity,89%
CCS(=O)(=O)N1CC(CC#N)(n2cc(-c3ncnc4[nH]ccc34)cn2)C1,"Alpha-1-acid glycoprotein 1 (ORM1, Homo sapiens, UniProt P02763)",fluorescence quenching,,308 K,,bimolecular quenching constant,4.12e+12 ± 8.5e+11 M⁻¹ s⁻¹
CC(=O)N[C@H](C(=O)N1C[C@H](O)C[C@H]1C(=O)NCc1ccc(-c2scnc2C)cc1)C(C)(C)SCCCCCCNC(=O)C[C@@H]1N=C(c2ccc(Cl)cc2)c2c(sc(C)c2C)-n2c(C)nnc21,"BRD4/VHL, BD2; with elongins B/C (Homo sapiens, UniProt O60885+P40337, A384K/E383V/K378Q)",ITC,,"25 °C, together with: BRD4 BD2",relative to: binary Kd over ternary Kd,cooperativity,2
N#Cc1ccsc1NC(=O)COc1cc(Cl)ccc1Cl,Kir3.1/Kir3.4,"activator, thallium flux",HEK293,concentration not given,,activity,inactive
CCCCC[C@H](O)/C=C/[C@H]1[C@H](O)CC(=O)[C@@H]1C/C=C\CCCC(=O)O,"Prostaglandin E2 receptor EP1 subtype (PTGER1, Homo sapiens, UniProt P34995, Y99A)","IP1 accumulation, agonist",AD293,"1 h, EP1 Y99A mutant",,Emax,102 ± 3.8%
CC1CCCN(C(=O)c2cc3ncccn3n2)C1 (stereo not shown),"Protein transport protein Sec31A (SEC31A, Homo sapiens, UniProt O94979)","binding, affinity selection mass spectrometry",,,relative to: other proteins in batch,fold enrichment,1.01
NCCCC[C@H](N)C(=O)Nc1ccc2ccccc2c1,rat aminopeptidase III,substrate,,,,Km,5 µM
CCc1cc(NC(=O)COc2cccc(Cl)c2Cl)n(CC(F)(F)F)n1,Kir3.1/Kir3.4,"thallium flux, activator",HEK293,,relative to: standard compound,Emax,75%
CCCCCCCCCCCCCCc1ccc([C@H]2CC[C@H]([N+](C)(C)CCC)CC2)cc1.[I-],"Sphingosine kinase 2 (SPHK2, Homo sapiens, UniProt Q9NRA0)","inhibitor, radiometric flash-plate",cell lysate,together with: sphingosine 5 µM,,Ki/Km ratio,1.4
CC(=O)NCC(=O)NCC(=O)N[C@H](C(=O)N[C@@H](Cc1ccc(O)cc1)C(=O)N[C@@H](CO)C(=O)N[C@H]1CSSC[C@@H](C(=O)N[C@@H](CCCNC(=N)N)C(=O)N2CCC[C@H]2C(=O)N[C@@H](CCC(N)=O)C(=O)N[C@@H](CCCNC(=N)N)C(=O)NCC(=O)NCCC(=O)N[C@@H](CCCCNC(=O)CN(CC(=O)NCCCC[C@H](NC(=O)CCNC(=O)CNC(=O)[C@H](CCCNC(=N)N)NC(=O)[C@H](CCC(N)=O)NC(=O)[C@@H]2CCCN2C(=O)[C@H](CCCNC(=N)N)NC(=O)[C@@H]2CSSC[C@H](NC(=O)[C@H](CO)NC(=O)[C@H](Cc3ccc(O)cc3)NC(=O)[C@@H](NC(=O)CNC(=O)CNC(C)=O)[C@@H](C)O)C(=O)N[C@@H](Cc3c[nH]cn3)C(=O)N[C@@H](Cc3ccccc3)C(=O)NCC(=O)N[C@@H](C)C(=O)N[C@@H](CC(C)C)C(=O)N[C@@H]([C@@H](C)O)C(=O)N[C@@H](Cc3c[nH]c4ccccc34)C(=O)N[C@@H](C(C)C)C(=O)N2)C(N)=O)C(=O)CCN)C(N)=O)NC(=O)[C@H](C(C)C)NC(=O)[C@H](Cc2c[nH]c3ccccc23)NC(=O)[C@H]([C@@H](C)O)NC(=O)[C@H](CC(C)C)NC(=O)[C@H](C)NC(=O)CNC(=O)[C@H](Cc2ccccc2)NC(=O)[C@H](Cc2c[nH]cn2)NC1=O)[C@@H](C)O,"Erythropoietin receptor, extracellular domain (Homo sapiens, UniProt P19235)","binding, SPR",,,,residence time,31 min
C[S+](CC[C@H](N)C(=O)O)C[C@H]1O[C@@H](n2cnc3c(N)ncnc32)[C@H](O)[C@@H]1O (stereo partly shown),"T2, riboswitch RNA SAM-I metF-H2 (Thermoanaerobacter tengcongensis)",ITC,,apparent,,binding,binds
O=C(COP(=O)(O)O)[C@@H](O)[C@H](O)[C@H](O)COP(=O)(O)O,"DnaJ homolog subfamily A member 1 (DNAJA1, Homo sapiens, UniProt P31689)",thermal proteome profiling,HepG2 cell lysate,"concentration not given, 57 over 37 °C, mean",relative to: compound over control,thermal stability ratio,0.662
O=C(CN1C(=O)S/C(=C\c2cccc([N+](=O)[O-])c2)C1=O)c1ccc([N+](=O)[O-])cc1,AKR1B1,"enzyme activity, inhibitor",,,,Hill slope,-0.496
C[C@]12C[C@H](O)[C@H]3[C@@H](CCC4=CC(=O)CC[C@@]43C)[C@@H]1CC[C@@H]2C(=O)CO,"Cytochrome P450 11B1, mitochondrial (CYP11B1, Homo sapiens, UniProt P15538)",substrate,,"100 µM, 37 °C, phospholipid vesicles",,"NADPH consumption rate, 18-hydroxylation",5.6 ± 1.1 min⁻¹
N#Cc1ccc2c(-c3ccncc3)c(-c3ccc(F)cc3)nn2c1,"Cyclin-dependent kinase 1 (CDC28, Candida albicans, UniProt P43063)","kinase binding, competitor, MIB/MS competition, measured: CDC28",Candida albicans cell lysate,1 µM,relative to: DMSO,log2 fold change,0.0493
O=C(NC1CCC1)c1ccc2nc(-c3cccc(NS(=O)(=O)NCCN4CCCCC4)c3)cn2c1,"Activin receptor type-1-like (ACVRL1, Homo sapiens, UniProt P37023)",enzyme activity,,10 µM,,remaining activity,100%
